Measured values gathered from unrelated publications.
Each numbered part is a random draw from the data of one study; scales do not carry over between parts. Positions count from the first letter of the parent shown.

Series 1 — target: CCNB1, cyclin fold, Cln2 fusion (human); method: yeast growth competition, sequencing; sample: yeast; notes: strong parent motif; relative to: not given; direction: higher = stronger binding
Starting sequence: BRCA2 docking peptide (human); PSIKRNLLNEFDR; partner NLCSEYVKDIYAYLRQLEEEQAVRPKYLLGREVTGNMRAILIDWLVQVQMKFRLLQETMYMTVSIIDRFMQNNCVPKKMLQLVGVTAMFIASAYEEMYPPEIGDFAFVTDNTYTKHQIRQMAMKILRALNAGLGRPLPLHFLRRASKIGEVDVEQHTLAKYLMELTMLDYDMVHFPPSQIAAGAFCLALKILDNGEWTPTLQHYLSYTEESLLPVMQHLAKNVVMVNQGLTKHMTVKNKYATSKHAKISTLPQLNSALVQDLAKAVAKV
Substitution | normalised enrichment score
PSIKRNLLVEFDR [N9V] | 3.03
DSIKRNLLNEFDR [P1D] | 2.79
PSIKRNLLNEFDQ [R13Q] | 2.44
PSIKRNLLNEIDR [F11I] | 1.86
PSIKRNLWNEFDR [L8W] | 0.467
PSIKRNLLNESDR [F11S] | -1.1
PSIKRNLLNEYDR [F11Y] | 0.811
PSIGRNLLNEFDR [K4G] | 0.826
PSIKRPLLNEFDR [N6P] | 0.744
PSIKRNDLNEFDR [L7D] | -0.0951
PSIKRNNLNEFDR [L7N] | -0.449
PSIMRNLLNEFDR [K4M] | 2.15
PSIKTNLLNEFDR [R5T] | 0.453
PSYKRNLLNEFDR [I3Y] | 1.58
PSIKRNLLNEFDI [R13I] | 3.59
PSIKRNLLNEFLR [D12L] | -0.05
PSIKRNLLNEGDR [F11G] | 1.28
PSIKRQLLNEFDR [N6Q] | 0.673
PSIKGNLLNEFDR [R5G] | -0.116
GSIKRNLLNEFDR [P1G] | 2.08
PSIKRNLLNEFIR [D12I] | -0.228
ASIKRNLLNEFDR [P1A] | 2.14
VSIKRNLLNEFDR [P1V] | 2.41
PSIKDNLLNEFDR [R5D] | 0.486
PSIKRNMLNEFDR [L7M] | 1.23

Series 2 — method: protein binding microarray; form: double-stranded DNA, one strand shown; sample: in vitro; concentration: not given; relative to: not given; direction: higher = stronger binding
Target: Histone acetyltransferase KAT6A, winged helix 1, GST fusion (KAT6A, Homo sapiens, UniProt Q92794, residues 1-85)
Notes: 8-mer, flanks averaged, mean of 2 arrays, mostly near background
Construct (chain): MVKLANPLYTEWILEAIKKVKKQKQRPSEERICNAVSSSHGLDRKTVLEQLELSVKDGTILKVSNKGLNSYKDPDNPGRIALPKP
Strand | E-score
CAGGAATC | -0.223
AACCGCGC | 0.354
ATGATGGA | -0.162
CAAGATTG | -0.126
CTCTAACA | -0.0564
GTGAGGGA | -0.109
GGACAGAC | 0.0519
AGGATGGC | -0.0771
GTCCTGCA | -0.294
AAGATTGC | -0.00169
ATGTACAT | 0.0309
TATGCCGA | 0.257
GATTTGAC | 0.0345
CCCGGGAC | 0.309
AAACGCCC | 0.202
ATTCCCTC | -0.148

Series 3 — method: protein-binding microarray; form: double-stranded DNA, one strand shown; sample: in vitro; concentration: 250 nM; notes: 60-bp whole probe; together with: salmon DNA 0.4 mg/ml; relative to: random background probes; direction: higher = stronger binding; all sequences stand within: GCCTAGCAC … GTCTTGATTCGCTTGACGCTGCTG
Target: Interferon regulatory factor 5, full length, phosphomimetic (IRF5, Homo sapiens, UniProt Q13568-2, residues 1-514, K96S/S451D/S453D/S456D/S462D)
Strand | log fluorescence
TTAGGTTTCGACACTGGGATAGTGCTA | 5.81 z-score
GACGCTATCGACTATCGGGACGTGCTA | 4.32 z-score
TTAGGTATCTGTCTCGGTTAGTGCTAG | 1.48 z-score
GACGATTTCACACTGGAGACGTGCTAG | 0.53 z-score
GACGATCTCAGACTGGAGTCGTGCTAG | -0.23 z-score
TTAGGTCTCGGTTTCGGTTTGTGCTAG | 8.57 z-score
GACGGTTTCGGGATTGGGGACGTGCTA | 5.78 z-score
TCACGTCTCCACCTGGGACTGTGCTAG | -0.398 z-score
TCAGATTTCCACTTTCTACTGTGCTAG | 2.47 z-score
TTAGATTTCCTACTGCTTTAGTGCTAG | 0.516 z-score
TTAGGACTGATACTGCTTTAGTGCTAG | 0.311 z-score
CACGATCTCAGACTGGAGACGTGCTAG | -0.528 z-score
GACGGTTTCGGTTCCGGGAAGTGCTAG | 10.1 z-score
TTAGGTCTCCTTCTCCTCTAGTGCTAG | -0.285 z-score
GACGGTATCGGGGATCGGGACGTGCTA | 0.986 z-score
TTAGGTATCGACACTGGGTTGGTGCTA | 2.27 z-score
TTAGATCTCAGTTACGATTAGTGCTAG | 0.488 z-score
GAAGGTATCGGACTGGGGACGTGCTAG | 0.802 z-score
GACTATGCCGACTTTGGAAGTGTGCTA | -0.447 z-score
TTAGGTATCGACTTTCGTTTAGTGCTA | 8.2 z-score
TCCTCTCTGCCACTCAGGTAGTGCTAG | -0.182 z-score

Series 4 — target: UBE2E1 UBC core domain (UniProt P51965); method: yeast two-hybrid; sample: yeast; notes: mostly zero background; relative to: not given; direction: higher = stronger interaction
Sequence of UniProt P51965 (whole entry, looked up): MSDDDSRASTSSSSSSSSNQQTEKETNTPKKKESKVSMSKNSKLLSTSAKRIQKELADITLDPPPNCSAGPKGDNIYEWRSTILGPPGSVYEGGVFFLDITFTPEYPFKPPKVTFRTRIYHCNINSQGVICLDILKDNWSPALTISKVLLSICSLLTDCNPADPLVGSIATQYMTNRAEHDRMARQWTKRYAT
B1: MKRN3 RING domain (UniProt Q13064); chain FAVQRGMDKVCGICMEVVYEKANPNDRRFGILSNCNHSFCIRCIRRWRSARQFENRIVKSCPQCRVTSELVIPSE
B2: RNF103 RING domain (UniProt O00237); chain WPADMLHCTECVVCLENFENGCLLMGLPCGHVFHQNCIVMWLAGGRHCCPVCRWPSYKKKQPY
B3: MID2 RING domain (UniProt Q9UJV3); chain KMETLESELTCPICLELFEDPLLLPCAHSLCFSCAHRILVSSCSSGESIEPITAFQCPTCRYVISLNHRGL
B4: CNOT4 RING domain (UniProt O95628); chain MSRSPDAKEDPVECPLCMEPLEIDDINFFPCTCGYQICRFCWHRIRTDENGLCPACRKPYPED
B5: RNF6 RING domain (UniProt Q9Y252); chain NSIDSELGKICSVCISDYVTGNKLRQLPCMHEFHIHCIDRWLSENCTCPICRQPVLGSNIAN
B6: RNF186 RING domain (UniProt Q9NXI6); chain HSGSTECDLECLVCREPYSCPRLPKLLACQHAFCAICLKLLLCVQDNTWSITCPLCRKVTAVPGGLI
B7: RUFY1 RING domain (UniProt Q96T51); chain QALKGHAWLKDDEATHCRQCEKEFSISRRKHHCRNCGHIFCNTCSSNELALPSYPKPVRVCDSCHTLLLQRCSSTAS
B8: ZNRF4 RING domain (UniProt Q8WWF5); chain VRTFTWHNDLCAICLDEYEEGDQLKILPCSHTYHCKCIDPWFSQAPRRSCPVCKQSVAATEDSF
B9: HLTF RING domain (UniProt Q14527); chain LILSSGSDEECAICLDSLTVPVITHCAHVFCKPCICQVIQNEQPHAKCPLCRNDIHEDNLLE
B10: TRIM11 RING domain (UniProt Q96F44); chain LSTNLQEEATCAICLDYFTDPVMTDCGHNFCRECIRRCWGQPEGPYACPECRELSPQRNLRP
B11: TRIM41 RING domain (UniProt Q8WV44); chain PVQTLQEEAVCAICLDYFTDPVSIGCGHNFCRVCVTQLWGGEDEEDRDELDREEEEEDGEEE
Sequence | lacZ reporter activity
B1 (MKRN3 RING domain) | 0
B2 (RNF103 RING domain) | 0
B3 (MID2 RING domain) | 0
B4 (CNOT4 RING domain) | 13300
B5 (RNF6 RING domain) | 0
B6 (RNF186 RING domain) | 0
B7 (RUFY1 RING domain) | 0
LEALSSDFLACKICLEQLRAPKTLPCLHTYCQDCLAQLADGGRVRCPECRETVPVPPEGV (TRIM56 RING domain (UniProt Q9BRZ2)) | 0
B8 (ZNRF4 RING domain) | 12500
B9 (HLTF RING domain) | 0
B10 (TRIM11 RING domain) | 0
B11 (TRIM41 RING domain) | 0

Series 5 — target: FOSL1, bZIP domain (human); method: DHFR protein complementation; sample: yeast; relative to: wild-type JUN-FOS pair; direction: higher = stronger binding
Notes: single substitutions, most at no-binding floor
Starting sequence: JUN, bZIP domain (human); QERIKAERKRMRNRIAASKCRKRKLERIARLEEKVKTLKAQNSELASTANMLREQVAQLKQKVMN; partner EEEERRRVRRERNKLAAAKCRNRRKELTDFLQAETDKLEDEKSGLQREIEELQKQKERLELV
Substitution | binding fitness [natural log]
I28S | -0.976
R30N | -0.397
E54S | -0.609
M51F | -0.505
V35T | -1.04
E44S | -0.588
A29D | -0.524
E32W | -0.685
E54D | -0.672
E54F | -0.737
L45T | -1.44
S43R | -0.237
Q55G | -1.28
L45H | -1.47
K36R | -0.286
L52I | -0.88
A29P | -1.13
K34R | -0.189
K39S | -0.807
M51Q | -0.303
I28E | -0.641
E33A | -0.494
R30C | -0.36
L52T | -1.47

Series 6 — method: DHFR PCA, deep sequencing; sample: yeast; together with: (+)-ABA 200 µM; relative to: wild-type fitted maximum; direction: higher = stronger binding
Target: ABI1, truncated, D143A, DHFR fusion (Arabidopsis thaliana)
Notes: methotrexate growth selection, single substitutions
Starting sequence: PYL1, truncated, DHFR fusion (Arabidopsis thaliana); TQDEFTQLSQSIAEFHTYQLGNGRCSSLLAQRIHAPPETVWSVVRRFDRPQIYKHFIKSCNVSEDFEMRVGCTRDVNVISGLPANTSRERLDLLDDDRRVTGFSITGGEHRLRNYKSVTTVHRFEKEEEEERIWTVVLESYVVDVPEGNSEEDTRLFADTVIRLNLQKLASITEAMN; partner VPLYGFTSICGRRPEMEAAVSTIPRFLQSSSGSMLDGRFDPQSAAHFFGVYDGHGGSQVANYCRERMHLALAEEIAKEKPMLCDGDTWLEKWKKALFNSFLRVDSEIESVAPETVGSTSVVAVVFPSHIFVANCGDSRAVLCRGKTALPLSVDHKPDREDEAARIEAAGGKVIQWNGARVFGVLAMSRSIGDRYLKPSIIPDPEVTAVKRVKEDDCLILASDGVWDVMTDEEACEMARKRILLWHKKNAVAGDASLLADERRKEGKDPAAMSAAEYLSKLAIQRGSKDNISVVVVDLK
Substitution | relative binding score [%]
T173S | 97.4
Y115L | 40.7
E130R | 108
R46E | 86.9
S117E | 6.79
T6E | 102
C60V | 98.8
Q7V | 98.1
E147I | 92.9
Q167Y | 77.6
S140P | 17.5
F124A | 102
L20D | 102
E64C | 98
A35E | 26.8
R113F | 88.5
W134A | 100
E89A | -5.63
A158E | 3.76
G108A | 34.6
E67S | 101
I172W | 71.7
L166R | 2.4
E152H | 90.5
I79N | 94

For quick reference, copied from above (series 5):
Substitution | binding fitness [natural log]
V35T | -1.04
E44S | -0.588
A29D | -0.524
E32W | -0.685
E54D | -0.672
E54F | -0.737
L45T | -1.44
S43R | -0.237
Q55G | -1.28
L45H | -1.47
K36R | -0.286
L52I | -0.88
A29P | -1.13
K34R | -0.189
K39S | -0.807
M51Q | -0.303
I28E | -0.641
E33A | -0.494
R30C | -0.36
